Measurements of several laboratories.
Every numbered part comes from another study and shows a few of its results, in no order.

Block 1
Target: Histone acetyltransferase KAT6A, both winged helices, GST fusion (KAT6A, Homo sapiens, UniProt Q92794, residues 1-181)
Method: protein binding microarray
Molecule type: double-stranded DNA, one strand shown
Sample: in vitro
Concentration: not given
Setting: 8-mer, flanks averaged, mean of 2 arrays, mostly near background
Baseline: not given
Direction: higher = stronger binding
Residues (chain): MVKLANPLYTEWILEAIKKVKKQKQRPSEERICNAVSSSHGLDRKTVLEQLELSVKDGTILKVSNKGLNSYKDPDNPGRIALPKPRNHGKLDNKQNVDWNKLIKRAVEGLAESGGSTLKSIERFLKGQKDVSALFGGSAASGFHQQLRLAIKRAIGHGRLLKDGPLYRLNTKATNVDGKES
Strand | E-score
TATTGGCA | -0.237
CACGCCTA | 0.00666
ATCGCAGA | -0.11
ACGACAGC | -0.00179
ACATAATA | -0.112
GCCTGCAC | -0.0741
CCGTGTCG | 0.241
CCCCTCAC | -0.0874
GGGTATAC | 0.0236
AGACCCCG | 0.167
CATTGATA | 0.0328
CCCGCACG | 0.227
CAACGATA | -0.0206
AGTTTTTG | -0.0982
CCACCTTC | -0.291
CAGATAGC | -0.0934
ATCACTTG | -0.166
ATTTGACG | 0.166
AATGGAAA | -0.0574
AGCTTTCA | -0.105
AGACTCTG | -0.286
CATAAACA | 0.048

Block 2
Target: Sal-like protein 4, full length isoform A (SALL4, Homo sapiens, UniProt Q9UJQ4, residues 1-1053)
Sequence of UniProt Q9UJQ4 (whole entry, looked up): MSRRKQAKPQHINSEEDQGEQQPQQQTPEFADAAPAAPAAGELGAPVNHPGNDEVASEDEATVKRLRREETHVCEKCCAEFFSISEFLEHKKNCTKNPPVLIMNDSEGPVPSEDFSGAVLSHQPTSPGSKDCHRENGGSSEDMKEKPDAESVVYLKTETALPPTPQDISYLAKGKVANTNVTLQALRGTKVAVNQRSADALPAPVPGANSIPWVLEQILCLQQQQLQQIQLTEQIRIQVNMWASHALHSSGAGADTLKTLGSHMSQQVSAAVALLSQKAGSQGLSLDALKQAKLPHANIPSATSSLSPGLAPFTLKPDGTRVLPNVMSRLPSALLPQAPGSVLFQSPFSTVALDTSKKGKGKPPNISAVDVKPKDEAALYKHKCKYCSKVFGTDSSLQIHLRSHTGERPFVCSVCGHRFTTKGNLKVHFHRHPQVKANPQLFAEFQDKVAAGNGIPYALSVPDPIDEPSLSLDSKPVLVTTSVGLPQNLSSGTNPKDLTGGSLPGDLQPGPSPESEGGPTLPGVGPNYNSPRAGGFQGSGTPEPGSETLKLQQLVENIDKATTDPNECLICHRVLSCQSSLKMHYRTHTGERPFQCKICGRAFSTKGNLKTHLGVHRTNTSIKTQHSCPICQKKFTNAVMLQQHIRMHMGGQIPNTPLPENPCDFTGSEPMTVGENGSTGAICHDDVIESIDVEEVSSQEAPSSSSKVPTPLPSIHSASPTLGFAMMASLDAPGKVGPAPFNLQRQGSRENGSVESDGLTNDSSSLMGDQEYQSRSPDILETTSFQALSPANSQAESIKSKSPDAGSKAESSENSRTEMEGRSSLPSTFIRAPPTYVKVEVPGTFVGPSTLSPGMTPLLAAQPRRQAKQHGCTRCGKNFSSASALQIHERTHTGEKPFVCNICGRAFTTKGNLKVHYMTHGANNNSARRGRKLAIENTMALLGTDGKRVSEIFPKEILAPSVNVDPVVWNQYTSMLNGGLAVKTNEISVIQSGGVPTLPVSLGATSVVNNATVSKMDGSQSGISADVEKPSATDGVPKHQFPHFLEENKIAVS
Method: universal PBM
Molecule type: double-stranded DNA, one strand shown
Sample: in vitro
Concentration: 600 nM
Setting: 8-mer, flanks averaged, mean of replicates
Direction: higher = stronger binding
Strand | E-score
ACCCCAAC | -0.0921
AGCGAGAG | -0.0282
AATTCTCT | 0.00736
AGCCGCCC | -0.318
CCCGGTCC | -0.477
TCACCAAA | 0.211
TAAAGATA | 0.245
ATCCACCC | -0.115
CCTCTACC | -0.18
GATTCTCC | -0.194
ACGAAGAA | 0.246
ACTCAACC | 0.0887
GGCATCGA | -0.151
ATCGGCGA | -0.254
ACGTCGAC | -0.0583
GGTCCTGA | -0.261
AAACTCAA | 0.248
AACGTCTG | -0.177
CCTTCTGA | 0.0923
TTAGCAAA | 0.144

Block 3
Target: Interferon regulatory factor 5, full length, phosphomimetic (IRF5, Homo sapiens, UniProt Q13568-2, residues 1-514, S451D/S453D/S456D/S462D)
Method: protein-binding microarray
Molecule type: double-stranded DNA, one strand shown
Sample: in vitro
Concentration: 940 nM top
Setting: 60-bp whole probe
Together with: salmon DNA 0.4 mg/ml
Baseline: random background probes
Direction: higher = stronger binding
All sequences stand within: GCCTAGCAC … GTCTTGATTCGCTTGACGCTGCTG
Strand | fitted relative affinity
GTGGGAAACCGGAAAGGCAAAGTGCTA | -0.509 z-score
TTCATTATTGTTTCCTTCCTGTGCTAG | 1.79 z-score
CCGGGGGGCACAGGGTGAGGGTGCTAG | 2.25 z-score
TCATTTATCAAATGTGGGACTGTGCTA | -0.168 z-score
GACGGTCTCGCTCTCGGGACGTGCTAG | 1.68 z-score
TTAGGTATCGGTGTCGGTTAGTGCTAG | 8.4 z-score
GAACCTTGGCCTCTAGGTTTGTGCTAG | -0.532 z-score
TCATCTCTGCTCCTTCTGACTGTGCTA | 1.03 z-score
TTAGGTTTCCTACTGCTTTCGTGCTAG | 0.877 z-score
TCACTTCTAGACTTCTCACTGTGCTAG | 0.751 z-score
GACGGTATCGGTCTCTGGACGTGCTAG | 8.18 z-score
GACCGACTGGGGTATCGGGACGTGCTA | 0.9 z-score
TTAAAAAAAAAAAACTGTAACGTGCTA | -0.0535 z-score
TCACATTTTCGTTTTTAACTGTGCTAG | 2.16 z-score
GAGGGACTGCTACTGCTGACGTGCTAG | -0.604 z-score
GACGGTATCGGGACTGGGGATGTGCTA | 3.1 z-score
TTAGAGATCGGGACTGGATTAGTGCTA | -0.282 z-score
TTAGAACTGGGGAATGGATTAGTGCTA | 0.233 z-score
TTAGATATCAGTCCCGATTAGTGCTAG | 0.26 z-score
TCATCTCCCCCATCTTGTACTGTGCTA | 0.631 z-score
TTAGGACTGCTTCTGCTTTAGTGCTAG | -0.256 z-score
GACGGTTTCGGTATCAGGACGTGCTAG | 13.6 z-score

Block 4
Target: RNA binding protein fox-1 homolog 2, RRM domain, GST-SBP tag (RBFOX2, Homo sapiens, UniProt O43251-10, residues 100-194)
Method: RNA Bind-n-Seq
Molecule type: RNA
Sample: in vitro
Concentration: 365 nM
Setting: natural RNA segment, single round, ends assumed
Baseline: no-protein control
Direction: higher = stronger binding
All sequences stand within: GGGAGUUCUACAGUCCGACGAUC … UGGAAUUCUCGGGUGCCAA
Construct (chain): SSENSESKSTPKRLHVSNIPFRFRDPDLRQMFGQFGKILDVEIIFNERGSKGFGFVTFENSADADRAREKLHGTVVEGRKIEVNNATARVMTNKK
Strand | RBNS enrichment (R)
GUGUACCCUAUGGUGGGAAUGUGGGGUUGCCUUUCAAAAGCCUUCAGGAUGGCAACAGAUUGGAUGUGCUAUCUCAGUGCCUGCAGGUCUCUCUGCUCGAGGCAGCAGGG | 0.609
AGAUGGAGGAGCCCUACCUGCAAGGAUCCAAAGAGGAGGGCACUCCCCUCAAACUCAAGUGUGAGCUCUGUGGACGGGUGGACUUUGCCUACAAGUUCAAGCGUUCCAAG | 0.312
CCCCAGUUCUGUAGCAGCCGAUCAGCGUCACCUUUGAAGUAUACAUGAGAGAAAUAUAUUUACAAAUGCUUUAUUCUCUUCUUUAAUAAAAAGUGCACCGGUAUUCUAGA | 1.09
AUAGAGUUAACAACUUACGAUAAAUUGCCCAAAGCUGGGCCUUGCUGUGUGUGCUCUGGACACUGUACAUUUGUACCCAACCAAGUGGGUCAAGUCGGAGAGGGACUCUU | 0.353
GCUCCCUCAAAUAUGUAUCUGAUGAGAUUCUUUAAUUCCCAACUCCAUGUGUGUGCGAGCACGCGUGUCUGUGUCUGUGUGUGCAUACUUCUGUGACUUUAGACAUGCUU | 0.721
GCUCUGGGAGAUGUUGGGUGUUUUAAGGUUACUGAACCUACAAAGGCCCCUCCUCCCUGACCACCCAUCUUGGCCCGUCAUACCUAGCGCUGUCAUGUCCCCUCCCCGCA | 3.88
UGUUAAAAAUUGUACUGAUGUUUUAAACUCGUAACUAUACCACCCUUCUCACUGGUGUAUUUUGAAAACCACCACAGUCCGAUGUCCUGUGCCAUGUCUGUCAUUCCUGU | 0.306
AUGAGUUGUGUUUCUGGACUGUUUUGUUUUCCCCUUUAGACAAAGAGCAACUUAGAAGUAUUUGCAAACUUUUCCAGAACAUUCUCAAAGCCUGUGAUGGAGGAGCACAA | 0.427
UGGCAGCCCAGAAUCCUCAAGACAAAGCAAGGGGUAUCAGCUGAUGGCCGCGGGACUGAUGGGUGUCCUGGGUUCUUUAGCUCACCAGCACUUUGCGCUCAAUGGACUUU | 0.519
CAUCCAGAGUUACUGUGUGACUUGGUCCUGCCAUCGUUAGCUUUGAAAUCACAGGCAUUGGGCUCUGUUUUGACACCAUUCAUUGGACUGCGGGACAGUCAUUCUUUACG | 0.536
GGAACAAAAGAAACUGGAAAGGAAGAUGCUUUAGGAACAUGUUUUGCUUUUUUAAAAUAUAUAUAUAUUUAUAAGAGAUCCUUUCCCAUUUAUUCUGGGAAGAUGUUUUU | 0.994
AUCCAGACAAGAAAUCAACAUGCUAUCAAGAACCAGGUUGAAGCAAAACUGAAAGUGUGUGAUAUUUUUGUUGACGUUAUUUAUAAAAAUAUUUCAACGCUGUCAAUAAU | 0.533

Block 5
Target: RING finger protein unkempt homolog, zinc fingers 1-6, SBP tag (UNK, Homo sapiens, UniProt Q9C0B0, residues 30-357)
Sequence of UniProt Q9C0B0 (30-357, looked up): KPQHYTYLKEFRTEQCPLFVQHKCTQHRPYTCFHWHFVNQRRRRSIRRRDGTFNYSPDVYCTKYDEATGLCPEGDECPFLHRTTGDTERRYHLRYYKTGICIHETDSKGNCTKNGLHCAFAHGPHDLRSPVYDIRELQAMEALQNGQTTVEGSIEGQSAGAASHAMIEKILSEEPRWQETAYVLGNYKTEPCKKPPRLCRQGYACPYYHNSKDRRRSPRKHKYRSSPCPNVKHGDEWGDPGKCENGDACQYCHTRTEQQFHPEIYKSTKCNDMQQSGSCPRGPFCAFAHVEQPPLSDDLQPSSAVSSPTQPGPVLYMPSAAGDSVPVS
Method: RNA Bind-n-Seq
Molecule type: RNA
Sample: in vitro
Concentration: 100 nM
Setting: RNA with constant flanks, vertebrate orthologous sites, ends assumed
Baseline: input RNA pool
Direction: higher = stronger binding
All sequences stand within: GGGAGUUCUACAGUCCGACGAUC … CAACAGAGGAUUGAGCAUCA
Strand | bound/input enrichment
AGUAGUUUUAAGCUUGUUUGCACAGUUAUUUUUUUCCAUUGGAAAUGGAAUUCAUUGCCUUAGGUCUUUUUAAAUAGUGUAUUAUCGUUGGGGCUGGCUCUAUGCUUGAAAACCAGUUUA | 3.04 ratio
CGUGCUUAUGCUCUUCUAUGAGAGAGAUGAAUUGGGGAGAAUUGUCUCCAUUUUAUAGAUUAGUUUCUUUCUAAAUUAUGACCAAAAAUAUUUUGCUAUUUCUUUCUUUGUAUAUGGACA | 0.733 ratio
AUAUUGUAUGUAGAGAAAAAUUUUCAUUGACCCCAUUGUGAAAUUCCCUAGCAAUUUAUUUAGAAUCUUAAUUUUUCUAAUUGAAGCUCACUGUAUUAGUCAUUUUUAGCAUAAUUAAAA | 2.45 ratio
CAGUCAUGGAGAAAAACAUAUUAAAAUAACUUCAUGGCACUGAUGUUAAUUCUAGUCUAUUAGUUUUAUAAAAGUUAGGAUUCUUAUUUAGGAACAACAGGAAAUGACUGUUAAGGAGAA | 0.823 ratio
CUCCACUCCCCCUGGGUGCCUGACUCCAGUGAAGCACUCACCAGUGCUGCAAGGGGUCCAGAGUAUUUUUUUGCUGCUUCAGUCCCCAAUGCCUUCCAGCAGAAGUGGCAGUAGACUGUU | 0.358 ratio
GUGUUGGUGCAGAGUGCUCUGUACCAGUGCUCAUCAUCCCUUCUUCAUAUCAGUUGUCCCUAGUUAUAGGAAUUUAAUAUUUUUAAAAGUUUUACAUUGCUGUAUAUUCAAAGAUUUGUU | 0.855 ratio
ACCAGUUUGUAUGUACAUUAUUCACAUUCCUCUCUGUUGUGUUUAGAAAAAAAAGACAUUUUAGCCUUUUUUAAGGUUACUGAUUUAAUUUAAUGUUACUUGGUUGCAUGAAGUUGCCCU | 0.592 ratio
GCACAUGCCGCUCUCACCAAAAGCAAACUGCCACUUAUCAAAUUUCAUUCAGAGUUGUUUUAGUGUUUCCUAUUCCCUACCCUUCCCCCUCCUUUCAAUGCUGAAAUAUCCUAAGUUGUC | 1.93 ratio
UAAUUGCCUAUAAUAAUGGAAACCAUUUUUAAAAUUUUUCAUUUCCCCCUUAGGCAUAAUUAGUCUUUUUUUCCCCAGGCAGAUCAUUCUGAGUGUGCGAGUGUGUGUGCACGUUACAGA | 0.719 ratio
GUUAGGUCAUGACCCUUAUAGGUUAGGUCAUGAUGCCUACAGGUUAGGGCAGGACCCGUAUAGAUUAGGCCAUGAUCCCUACAGACUAACUCCUGAUCCCUAUAGGAUGUCACCUAGACC | 0.584 ratio
CUUGAUUCACAUUCCUCUCUGUUUGUGUUUAGAGAAAGAAAGGGGGGAACAAAAGACAUUUUAGCCUUUUUUAAAGUUACUGAUAUAAUUUCUUGUUACUUGGUUGCAUGAAGCUGCCCU | 0.734 ratio

A few entries again (block 3):
Strand | fitted relative affinity
TTAGGTATCGGTGTCGGTTAGTGCTAG | 8.4 z-score
TCACTTCTAGACTTCTCACTGTGCTAG | 0.751 z-score
GACCGACTGGGGTATCGGGACGTGCTA | 0.9 z-score
GACGGTTTCGGTATCAGGACGTGCTAG | 13.6 z-score
TCACATTTTCGTTTTTAACTGTGCTAG | 2.16 z-score
TTAGGTTTCCTACTGCTTTCGTGCTAG | 0.877 z-score
GTGGGAAACCGGAAAGGCAAAGTGCTA | -0.509 z-score
GACGGTATCGGTCTCTGGACGTGCTAG | 8.18 z-score
TTAGATATCAGTCCCGATTAGTGCTAG | 0.26 z-score
TCATCTCTGCTCCTTCTGACTGTGCTA | 1.03 z-score
GAACCTTGGCCTCTAGGTTTGTGCTAG | -0.532 z-score
TTAGGACTGCTTCTGCTTTAGTGCTAG | -0.256 z-score
TCATTTATCAAATGTGGGACTGTGCTA | -0.168 z-score
